{"data": "Results from different studies", "note": "Compare with care: the assays were run in different laboratories. Several values in a cell are separate wells, animals, samples, runs or records."}
{"SMILES": "CCN1CCN(Cc2ccc(Nc3ncc(F)c(-c4cc(F)c5nc6n(c5c4)[C@H](C)CCC6)n3)nc2)CC1", "system": "human, plasma", "conditions": "300 mg single dose, median", "Tmax": "7.97 h"}
{"SMILES": "C=CCn1c(=O)c2cnc(Nc3ccc(N4CCN(C)CC4)cc3)nc2n1-c1cccc(C(C)(C)O)n1", "system": "human", "conditions": "oral, 150 mg twice daily, monotherapy lead-in, -5 days", "how to read": "median", "Tmax": "2 h"}
{"SMILES": "CO[C@H]1C[C@@H]2CC[C@@H](C)[C@@](O)(O2)C(=O)C(=O)N2CCCC[C@H]2C(=O)O[C@H]([C@H](C)C[C@@H]2CC[C@@H](OC(=O)NCCOCCOCCOCCOCCOCCOCCOCCOCCC(=O)N3CCc4cc(Cn5nc(-c6ccc7oc(N)nc7c6)c6c(N)ncnc65)ccc4C3)[C@H](OC)C2)C[C@@H](O)[C@H](C)/C=C(\\C)[C@@H](O)[C@@H](OC)C(=O)[C@H](C)C[C@H](C)/C=C/C=C/C=C/1C", "system": "human, plasma", "conditions": "intravenous, 12 mg, cycle 1 day 15, arithmetic mean", "Tmax": "0.92 h"}
{"SMILES": "CN1C(=O)[C@@H](NC(=O)c2nnc(Cc3ccccc3)[nH]2)COc2cccnc21", "system": "healthy human, fasted, plasma", "conditions": "oral, 30 mg single dose, median", "Tmax": "3.51 h"}
{"SMILES": "Cl.[2H]C([2H])([2H])CC(=O)c1cnc(NC(=O)C2CC2)cc1Nc1cccc(-c2ncn(C([2H])([2H])[2H])n2)c1OC", "test": "median", "system": "human", "conditions": "oral, 20 mg twice daily, day 14, fasted, tablet, multiple dose", "Tmax": "2.06 h"}
{"SMILES": "CCn1cc(C(=O)N2CCOCC2)c(=O)c2cc(NC3Cc4ccccc4C3)cnc21", "system": "human male, fed, plasma", "conditions": "oral, 900 mg twice daily, day 1, tablet, median", "Tmax": "2.5 h"}
{"SMILES": "O=C(O)CCC(=O)O.[2H]C([2H])([2H])Oc1cc(C)c2[nH]ccc2c1CN1CC[C@@H](C2CC2)C[C@H]1c1ccc(C(=O)O)cc1", "system": "human, plasma", "conditions": "200 mg once daily, day 10, multiple ascending dose, median", "Tmax": "2 h"}
{"SMILES": "NC1(C(=O)N[C@@H](CCO)c2ccc(Cl)cc2)CCN(c2nc[nH]c3nccc2-3)CC1", "test": "LC-MS/MS, non-compartmental", "system": "human, plasma", "conditions": "360 mg, with: enzalutamide", "Tmax": "2.1 h and 1 h and 2 h"}
{"note": "For quick reference, copied from above:"}
{"SMILES": "CCN1CCN(Cc2ccc(Nc3ncc(F)c(-c4cc(F)c5nc6n(c5c4)[C@H](C)CCC6)n3)nc2)CC1", "system": "human, plasma", "conditions": "300 mg single dose, median", "Tmax": "7.97 h"}
